Assay results collected from several papers.
Every numbered part comes from another study and shows a few of its results, in no order. Substitutions count along the parent as printed.

Series 1
Partner: H2BC13 (Homo sapiens, UniProt Q99880)
Technique: cross-linking MS
Setting: hits only
Endpoint: interaction screen
H2BC12L (Homo sapiens, UniProt P57053): cross-linked
H2AC21 (Homo sapiens, UniProt Q8IUE6): cross-linked
H2AC11 (Homo sapiens, UniProt P0C0S8): cross-linked
H2BC3 (Homo sapiens, UniProt P33778): cross-linked
H2AC6 (Homo sapiens, UniProt Q93077): cross-linked

Series 2
Target: Runt-related transcription factor 1, full length (RUNX1, Homo sapiens, UniProt Q01196-8, residues 1-480)
Technique: protein-binding microarray
Form: hairpin DNA
Matrix: in vitro
Tested at: not given
Setting: whole hairpin DNA, median over replicate spots
Reference: not given
Direction: higher = stronger binding
Endpoint: median fluorescence
GAGGCCTGTCGCGGCGGGCCTCCTGGCCCGCCGCGACAGGCCTCACACTC: 2130 a.u.
GAGGGCTGTCGCGGTTGGCCTCCTGGCCAACCGCGACAGCCCTCACACTC (5mC at 40): 2780 a.u.
GAGGCCTGTCGCGGTTGGCCTCCTGGCCAACCGCGACAGGCCTCACACTC (5mC at 10): 4680 a.u.
GAGGCCCGTCGCGGTTGGCCTCCTGGCCAACCGCGACGGGCCTCACACTC: 2670 a.u.
GAGGCCCAACCGCAACAGCCTCCTGGCTGTTGCGGTTGGGCCTCACACTC (5mC at 7): 5610 a.u.
GAGGCCTGCTGCGGTTGGCCTCCTGGCCAACCGCAGCAGGCCTCACACTC: 4360 a.u.
GAGGCCCAACCGCCACAGCCTCCTGGCTGTGGCGGTTGGGCCTCACACTC (5mC at 14): 2830 a.u.
GAGGCCCAACCGCAACGGCCTCCTGGCCGTTGCGGTTGGGCCTCACACTC (5mC at 16): 6710 a.u.

Mixed results
P1: PafA, mature enzyme, eGFP fusion (Elizabethkingia meningoseptica, UniProt Q9KJX5); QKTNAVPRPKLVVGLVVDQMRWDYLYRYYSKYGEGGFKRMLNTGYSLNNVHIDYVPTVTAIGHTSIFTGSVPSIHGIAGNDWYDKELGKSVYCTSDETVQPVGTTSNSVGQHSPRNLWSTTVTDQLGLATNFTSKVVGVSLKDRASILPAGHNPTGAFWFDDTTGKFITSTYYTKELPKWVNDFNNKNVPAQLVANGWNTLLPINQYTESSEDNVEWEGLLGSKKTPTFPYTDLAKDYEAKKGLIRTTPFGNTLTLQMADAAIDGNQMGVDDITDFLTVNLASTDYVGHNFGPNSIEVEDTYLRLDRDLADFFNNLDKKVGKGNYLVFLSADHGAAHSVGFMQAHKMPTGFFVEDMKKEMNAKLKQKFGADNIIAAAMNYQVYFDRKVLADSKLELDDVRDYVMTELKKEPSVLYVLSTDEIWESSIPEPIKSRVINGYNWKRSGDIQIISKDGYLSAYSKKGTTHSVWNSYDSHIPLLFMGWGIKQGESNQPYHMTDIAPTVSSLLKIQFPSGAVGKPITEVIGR
KMT2D (Homo sapiens, UniProt O14686)  cross-linked residues (NDUFV1 (Homo sapiens, UniProt P49821); cross-linking MS; cell fractions; together with: DSSO): K3563 to K81
P1 T301G  phosphate dissociation constant (inorganic phosphate, free oxyanion; microfluidic competitive inhibition; in vitro, cell-free expressed; not given, derived from inhibition constants, unchanged parent 615000 nM; lower = stronger binding): 402 µM
PRPF6 (Homo sapiens, UniProt O94906)  cross-linked residues (PRPF31 (Homo sapiens, UniProt Q8WWY3); cross-linking MS; cell fractions; together with: DSSO): K835 to K422
NF1 (Homo sapiens, UniProt P21359)  cross-linked residues (PTBP1 (Homo sapiens, UniProt P26599); cross-linking MS; cell fractions; together with: DSSO): K609 to K436
CANX (Homo sapiens, UniProt P27824)  interaction screen (FSIP2 (Homo sapiens, UniProt Q5CZC0); cross-linking MS; hits only): cross-linked

Repeated from above (series 2):
GAGGCCTGTCGCGGCGGGCCTCCTGGCCCGCCGCGACAGGCCTCACACTC: 2130 a.u.
GAGGCCTGCTGCGGTTGGCCTCCTGGCCAACCGCAGCAGGCCTCACACTC: 4360 a.u.
GAGGCCCGTCGCGGTTGGCCTCCTGGCCAACCGCGACGGGCCTCACACTC: 2670 a.u.
